# Published values gathered from unrelated publications.
# Every numbered part comes from another study and shows a few of its results, in no order. Several values in a cell are separate wells, animals, samples, runs or records.
# UniProt Q96J92, sequence (whole entry, looked up): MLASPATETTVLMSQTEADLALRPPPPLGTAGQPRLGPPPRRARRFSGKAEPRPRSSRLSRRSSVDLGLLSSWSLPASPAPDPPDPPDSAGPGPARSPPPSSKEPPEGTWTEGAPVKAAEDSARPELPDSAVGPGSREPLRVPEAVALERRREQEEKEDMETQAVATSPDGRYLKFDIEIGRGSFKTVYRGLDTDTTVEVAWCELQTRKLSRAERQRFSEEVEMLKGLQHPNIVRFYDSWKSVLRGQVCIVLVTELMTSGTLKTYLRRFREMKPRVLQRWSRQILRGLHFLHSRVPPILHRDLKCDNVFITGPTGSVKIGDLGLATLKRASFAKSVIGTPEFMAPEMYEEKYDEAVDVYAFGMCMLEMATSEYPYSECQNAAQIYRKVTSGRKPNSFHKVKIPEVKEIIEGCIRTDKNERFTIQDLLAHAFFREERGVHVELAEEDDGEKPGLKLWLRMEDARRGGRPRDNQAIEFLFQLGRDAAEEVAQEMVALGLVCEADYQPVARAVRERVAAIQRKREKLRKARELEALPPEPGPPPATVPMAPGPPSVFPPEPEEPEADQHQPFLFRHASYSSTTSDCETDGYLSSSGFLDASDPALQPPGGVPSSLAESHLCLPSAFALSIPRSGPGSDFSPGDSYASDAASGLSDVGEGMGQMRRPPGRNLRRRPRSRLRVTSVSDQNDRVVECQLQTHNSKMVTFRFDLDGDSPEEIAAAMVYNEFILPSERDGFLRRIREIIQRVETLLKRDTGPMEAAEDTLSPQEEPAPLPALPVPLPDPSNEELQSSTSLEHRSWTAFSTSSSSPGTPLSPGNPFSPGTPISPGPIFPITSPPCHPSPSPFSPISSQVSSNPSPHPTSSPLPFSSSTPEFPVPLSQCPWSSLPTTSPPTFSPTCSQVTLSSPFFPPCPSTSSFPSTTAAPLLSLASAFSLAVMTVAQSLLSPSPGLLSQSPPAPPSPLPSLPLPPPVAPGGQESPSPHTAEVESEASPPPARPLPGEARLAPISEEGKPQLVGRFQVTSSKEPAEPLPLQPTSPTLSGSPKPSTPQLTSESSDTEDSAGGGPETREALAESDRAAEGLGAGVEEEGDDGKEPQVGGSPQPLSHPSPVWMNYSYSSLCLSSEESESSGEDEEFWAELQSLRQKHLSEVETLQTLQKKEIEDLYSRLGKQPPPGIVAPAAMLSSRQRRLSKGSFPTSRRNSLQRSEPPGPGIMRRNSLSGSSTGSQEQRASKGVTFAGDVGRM
# UniProt P42336, sequence (whole entry, unmodified, looked up): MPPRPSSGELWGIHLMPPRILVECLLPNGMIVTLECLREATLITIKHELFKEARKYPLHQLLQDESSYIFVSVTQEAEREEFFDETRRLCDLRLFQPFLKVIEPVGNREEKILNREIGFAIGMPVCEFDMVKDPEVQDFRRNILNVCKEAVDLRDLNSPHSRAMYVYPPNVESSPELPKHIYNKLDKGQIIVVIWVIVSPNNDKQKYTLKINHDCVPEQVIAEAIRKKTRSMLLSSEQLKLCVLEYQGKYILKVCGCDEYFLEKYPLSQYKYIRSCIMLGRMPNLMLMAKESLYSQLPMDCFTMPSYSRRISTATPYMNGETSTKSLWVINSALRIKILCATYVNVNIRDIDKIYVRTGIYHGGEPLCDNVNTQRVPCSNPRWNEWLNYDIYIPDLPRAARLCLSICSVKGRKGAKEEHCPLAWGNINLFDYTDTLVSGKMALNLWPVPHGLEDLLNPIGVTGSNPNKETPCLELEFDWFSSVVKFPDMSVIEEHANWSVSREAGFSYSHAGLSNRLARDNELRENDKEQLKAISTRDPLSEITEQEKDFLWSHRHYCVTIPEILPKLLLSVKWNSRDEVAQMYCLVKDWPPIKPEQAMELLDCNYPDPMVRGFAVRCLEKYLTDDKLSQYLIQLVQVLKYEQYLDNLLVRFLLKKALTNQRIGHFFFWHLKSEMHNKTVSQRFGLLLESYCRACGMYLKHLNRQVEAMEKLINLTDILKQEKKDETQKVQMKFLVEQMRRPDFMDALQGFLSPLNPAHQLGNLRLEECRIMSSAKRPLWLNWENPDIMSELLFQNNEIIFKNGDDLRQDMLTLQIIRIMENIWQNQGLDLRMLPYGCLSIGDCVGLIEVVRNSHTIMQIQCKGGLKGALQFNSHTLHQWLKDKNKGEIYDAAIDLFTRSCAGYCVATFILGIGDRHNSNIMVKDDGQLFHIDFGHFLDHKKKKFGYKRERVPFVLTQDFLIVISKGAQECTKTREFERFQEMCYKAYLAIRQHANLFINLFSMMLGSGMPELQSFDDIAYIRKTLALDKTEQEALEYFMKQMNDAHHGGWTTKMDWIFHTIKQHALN
# UniProt Q9NRP7, sequence (whole entry, looked up): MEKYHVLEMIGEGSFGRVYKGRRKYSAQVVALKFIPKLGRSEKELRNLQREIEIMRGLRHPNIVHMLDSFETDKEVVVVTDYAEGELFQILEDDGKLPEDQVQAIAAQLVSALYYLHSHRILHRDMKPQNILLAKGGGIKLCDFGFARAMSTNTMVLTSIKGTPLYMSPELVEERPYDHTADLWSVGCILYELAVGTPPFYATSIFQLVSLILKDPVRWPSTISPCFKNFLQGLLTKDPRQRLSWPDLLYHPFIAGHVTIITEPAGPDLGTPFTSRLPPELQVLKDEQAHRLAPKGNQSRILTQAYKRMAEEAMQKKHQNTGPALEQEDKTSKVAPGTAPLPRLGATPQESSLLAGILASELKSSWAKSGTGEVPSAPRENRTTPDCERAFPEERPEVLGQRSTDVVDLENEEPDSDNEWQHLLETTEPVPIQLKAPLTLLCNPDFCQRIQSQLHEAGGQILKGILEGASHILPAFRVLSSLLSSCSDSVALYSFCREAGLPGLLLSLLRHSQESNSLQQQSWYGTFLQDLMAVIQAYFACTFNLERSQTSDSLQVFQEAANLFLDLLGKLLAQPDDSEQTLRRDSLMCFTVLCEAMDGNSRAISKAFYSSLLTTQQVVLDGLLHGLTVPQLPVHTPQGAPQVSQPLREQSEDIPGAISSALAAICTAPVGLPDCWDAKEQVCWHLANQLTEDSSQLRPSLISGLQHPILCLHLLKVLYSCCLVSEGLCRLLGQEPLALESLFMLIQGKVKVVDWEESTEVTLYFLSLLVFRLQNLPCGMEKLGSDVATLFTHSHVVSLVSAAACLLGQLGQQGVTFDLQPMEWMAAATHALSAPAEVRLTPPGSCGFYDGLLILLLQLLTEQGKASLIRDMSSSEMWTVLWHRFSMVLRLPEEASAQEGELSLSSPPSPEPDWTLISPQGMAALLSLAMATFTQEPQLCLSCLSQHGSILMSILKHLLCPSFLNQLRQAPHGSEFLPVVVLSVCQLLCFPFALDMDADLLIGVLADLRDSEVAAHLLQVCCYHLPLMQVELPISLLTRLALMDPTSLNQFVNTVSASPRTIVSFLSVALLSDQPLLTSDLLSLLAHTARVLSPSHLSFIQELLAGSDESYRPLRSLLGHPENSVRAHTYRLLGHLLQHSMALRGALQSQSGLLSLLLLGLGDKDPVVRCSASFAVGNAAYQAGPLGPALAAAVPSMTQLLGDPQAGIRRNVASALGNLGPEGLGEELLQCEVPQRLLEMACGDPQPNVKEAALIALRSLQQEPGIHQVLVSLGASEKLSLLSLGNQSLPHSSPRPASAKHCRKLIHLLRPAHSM
# UniProt Q9UL54, sequence (whole entry, looked up): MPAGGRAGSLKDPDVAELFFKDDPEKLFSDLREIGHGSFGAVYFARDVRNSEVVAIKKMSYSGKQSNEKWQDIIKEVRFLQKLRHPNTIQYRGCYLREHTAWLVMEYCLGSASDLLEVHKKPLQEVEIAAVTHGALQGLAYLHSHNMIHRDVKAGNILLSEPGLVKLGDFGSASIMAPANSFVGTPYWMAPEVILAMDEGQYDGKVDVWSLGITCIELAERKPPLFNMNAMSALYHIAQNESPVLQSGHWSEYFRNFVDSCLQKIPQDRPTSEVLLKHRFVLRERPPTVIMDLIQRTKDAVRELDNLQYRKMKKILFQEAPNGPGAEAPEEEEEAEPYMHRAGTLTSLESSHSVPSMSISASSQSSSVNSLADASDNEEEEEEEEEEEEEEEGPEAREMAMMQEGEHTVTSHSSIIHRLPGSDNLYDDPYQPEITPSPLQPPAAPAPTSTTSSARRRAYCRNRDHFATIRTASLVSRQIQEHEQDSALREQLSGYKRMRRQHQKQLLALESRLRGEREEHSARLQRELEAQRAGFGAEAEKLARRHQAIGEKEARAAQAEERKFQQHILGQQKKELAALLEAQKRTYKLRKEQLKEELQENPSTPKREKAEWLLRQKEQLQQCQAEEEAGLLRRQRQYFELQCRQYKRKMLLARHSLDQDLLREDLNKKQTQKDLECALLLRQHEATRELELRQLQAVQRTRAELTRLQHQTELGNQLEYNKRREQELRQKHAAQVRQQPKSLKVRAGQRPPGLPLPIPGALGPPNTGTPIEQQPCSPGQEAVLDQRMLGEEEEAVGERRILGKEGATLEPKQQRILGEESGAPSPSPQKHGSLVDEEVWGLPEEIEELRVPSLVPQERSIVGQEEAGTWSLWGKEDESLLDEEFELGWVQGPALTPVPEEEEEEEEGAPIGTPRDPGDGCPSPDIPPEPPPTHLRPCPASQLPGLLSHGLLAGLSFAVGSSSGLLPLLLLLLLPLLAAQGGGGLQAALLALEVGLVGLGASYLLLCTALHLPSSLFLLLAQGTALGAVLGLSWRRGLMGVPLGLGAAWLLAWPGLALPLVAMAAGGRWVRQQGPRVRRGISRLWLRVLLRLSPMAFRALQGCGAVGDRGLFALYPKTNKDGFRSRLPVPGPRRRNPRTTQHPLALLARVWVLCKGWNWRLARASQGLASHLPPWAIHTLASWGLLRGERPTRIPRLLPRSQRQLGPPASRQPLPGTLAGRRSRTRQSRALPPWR

# Block 1
# Cell line: mouse MPNST tumor cells
# Technique: high-content immunofluorescence imaging
# Item: nuclear SOX9
# Tested at: 10 µM
# Time: 12 h
# Notes: mean of 2 replicates
# Relative to: DMSO control
# Direction: higher = more nuclear SOX9
SMILES,nuclear SOX9 intensity
Cc1ccc2c(c1)c1c3n2CCNC3CCC1 (stereo not shown),156 % of DMSO
O=C(O)CN(CCN(CC(=O)O)CC(=O)O)CCN(CC(=O)O)CC(=O)O,96.7 % of DMSO
CC(=O)c1cc(-c2ccccc2OCC2CC2)c2ncccn12,124 % of DMSO

# Block 2
# Target: Phosphate system positive regulatory protein PHO4, full length, GST-tagged (PHO4, Saccharomyces cerevisiae, UniProt P07270, residues 1-312)
# Technique: competition protein-binding microarray
# Molecule type: double-stranded DNA, one strand shown
# Sample: in vitro
# Tested at: 2 µM
# Notes: whole 60-bp probe, lowest competitor level
# Together with: Cbf1 competitor, 0.05 µM
# Direction: higher = stronger binding
# Construct (chain): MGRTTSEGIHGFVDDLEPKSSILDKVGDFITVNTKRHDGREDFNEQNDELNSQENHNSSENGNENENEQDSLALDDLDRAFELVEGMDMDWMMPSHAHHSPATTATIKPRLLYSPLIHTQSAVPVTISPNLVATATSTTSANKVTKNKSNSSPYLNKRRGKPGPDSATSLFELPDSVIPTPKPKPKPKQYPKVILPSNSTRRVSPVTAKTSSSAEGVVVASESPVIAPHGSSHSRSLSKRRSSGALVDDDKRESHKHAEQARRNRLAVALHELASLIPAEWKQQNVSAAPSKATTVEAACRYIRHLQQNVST
Sequence,fluorescence intensity
CCGGCTTCAATCGTCCCCGTGCCAGATAAACCAAAAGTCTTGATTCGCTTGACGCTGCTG,10900 a.u.
AACAAGGGCATTTTTCACGTGCCGATGAGCAGCAAGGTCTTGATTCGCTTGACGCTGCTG,14400 a.u.
AAATTACTAAGTTGACGTGTGGGTGACGCCGTATGAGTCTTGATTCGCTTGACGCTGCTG,5550 a.u.
TCCCAGTAGATATCGCACGCAAAACTCAAAAGATGGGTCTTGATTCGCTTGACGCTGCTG,6520 a.u.
CGGGGTTAAGTTTTTCACGTGTTATGCTTGCAGCAGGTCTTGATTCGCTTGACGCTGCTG,13700 a.u.
GGTACAATCCGTTTGAACGTGACGGGGTTTGTTACAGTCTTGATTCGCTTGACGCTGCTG,9460 a.u.
AAATTACTAAGTTGTGTTGTGGGTGACGCCGTATGAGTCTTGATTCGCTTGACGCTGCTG,5100 a.u.
CTTTCCCGATCTTGGACGGTGGGTGTAGCACATTTGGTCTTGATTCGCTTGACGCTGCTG,4180 a.u.

# Block 3
# SMILES: CCCOc1ccc([C@@H]2[C@@H](C(=O)O)[C@H](c3ccc4c(c3)OCO4)CN2CC(=O)Nc2c(CC)cccc2CC)cc1
# Effect on: cell-free assay
# Technique: competition with immobilised ligand
# Tested at: 1 µM
target,remaining binding [%]
"PIK3CA (Homo sapiens, UniProt P42336, E545K)",68
"WNK4 (Homo sapiens, UniProt Q96J92)",80
"MAPK4 (Homo sapiens, UniProt P31152)",95
"STK36 (Homo sapiens, UniProt Q9NRP7)",88
"Tyrosine-protein kinase ABL1, phosphorylated (ABL1, Homo sapiens, UniProt P00519, Y253F)",87
"MET (Homo sapiens, UniProt P08581, Y1235D)",99
"SRPK2 (Homo sapiens, UniProt P78362)",100
"CDKL5 (Homo sapiens, UniProt O76039)",83
"TAOK2 (Homo sapiens, UniProt Q9UL54)",91
"FLT3 (Homo sapiens, UniProt P36888, ITD)",91
"GSK3A (Homo sapiens, UniProt P49840)",100
"EPHB1 (Homo sapiens, UniProt P54762)",91
"COQ8B (Homo sapiens, UniProt Q96D53)",89
"PRKCI (Homo sapiens, UniProt P41743)",80
"PIK3CG (Homo sapiens, UniProt P48736)",73

# Block 4
# Cell line: UACC-903 melanoma
SMILES,IC50 [µM]
CC(NCCC(c1ccccc1)c1ccccc1)c1ccccc1 (stereo not shown),8.7
O=C1NCCN1CCN1CCC(c2cn(-c3ccc(F)cc3)c3ccc(Cl)cc23)CC1,6.6
OCCN1CCN(CCCN2c3ccccc3Sc3ccc(Cl)cc32)CC1,9.7

# Single results of other studies
Structure (SMILES),target or system,assay,test system,conditions,quantity,value
Cn1c(=O)c2c(-c3ccncc3)c(Nc3ccccc3)oc2c2ccccc21,,,"human, microsomes or S9","2 µM, 0.5 h",remaining compound,73.2%
c1ccc(Oc2ccc(Nc3c4c(nc5ccccc35)CCC4)cc2)cc1,J774.1,resazurin,,0.0166 µM,cytotoxicity,-8% and -5%

# A few entries again (block 3):
target,remaining binding [%]
"WNK4 (Homo sapiens, UniProt Q96J92)",80
"MAPK4 (Homo sapiens, UniProt P31152)",95
"STK36 (Homo sapiens, UniProt Q9NRP7)",88
"Tyrosine-protein kinase ABL1, phosphorylated (ABL1, Homo sapiens, UniProt P00519, Y253F)",87
